Measured values from different studies.
Numbers after ± are the reported error.
Action: inhibitor
Sequence of UniProt O60928 (whole entry, unmodified, looked up): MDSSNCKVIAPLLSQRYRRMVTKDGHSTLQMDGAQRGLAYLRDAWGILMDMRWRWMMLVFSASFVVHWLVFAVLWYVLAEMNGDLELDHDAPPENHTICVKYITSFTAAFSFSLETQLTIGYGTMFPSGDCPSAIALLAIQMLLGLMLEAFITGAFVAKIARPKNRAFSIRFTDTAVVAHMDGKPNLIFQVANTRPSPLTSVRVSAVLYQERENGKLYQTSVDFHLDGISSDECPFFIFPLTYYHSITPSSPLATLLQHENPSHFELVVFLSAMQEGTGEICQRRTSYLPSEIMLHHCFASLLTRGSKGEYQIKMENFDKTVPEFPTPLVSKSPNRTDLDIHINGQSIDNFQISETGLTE
Sequence of UniProt Q13315 (whole entry, looked up): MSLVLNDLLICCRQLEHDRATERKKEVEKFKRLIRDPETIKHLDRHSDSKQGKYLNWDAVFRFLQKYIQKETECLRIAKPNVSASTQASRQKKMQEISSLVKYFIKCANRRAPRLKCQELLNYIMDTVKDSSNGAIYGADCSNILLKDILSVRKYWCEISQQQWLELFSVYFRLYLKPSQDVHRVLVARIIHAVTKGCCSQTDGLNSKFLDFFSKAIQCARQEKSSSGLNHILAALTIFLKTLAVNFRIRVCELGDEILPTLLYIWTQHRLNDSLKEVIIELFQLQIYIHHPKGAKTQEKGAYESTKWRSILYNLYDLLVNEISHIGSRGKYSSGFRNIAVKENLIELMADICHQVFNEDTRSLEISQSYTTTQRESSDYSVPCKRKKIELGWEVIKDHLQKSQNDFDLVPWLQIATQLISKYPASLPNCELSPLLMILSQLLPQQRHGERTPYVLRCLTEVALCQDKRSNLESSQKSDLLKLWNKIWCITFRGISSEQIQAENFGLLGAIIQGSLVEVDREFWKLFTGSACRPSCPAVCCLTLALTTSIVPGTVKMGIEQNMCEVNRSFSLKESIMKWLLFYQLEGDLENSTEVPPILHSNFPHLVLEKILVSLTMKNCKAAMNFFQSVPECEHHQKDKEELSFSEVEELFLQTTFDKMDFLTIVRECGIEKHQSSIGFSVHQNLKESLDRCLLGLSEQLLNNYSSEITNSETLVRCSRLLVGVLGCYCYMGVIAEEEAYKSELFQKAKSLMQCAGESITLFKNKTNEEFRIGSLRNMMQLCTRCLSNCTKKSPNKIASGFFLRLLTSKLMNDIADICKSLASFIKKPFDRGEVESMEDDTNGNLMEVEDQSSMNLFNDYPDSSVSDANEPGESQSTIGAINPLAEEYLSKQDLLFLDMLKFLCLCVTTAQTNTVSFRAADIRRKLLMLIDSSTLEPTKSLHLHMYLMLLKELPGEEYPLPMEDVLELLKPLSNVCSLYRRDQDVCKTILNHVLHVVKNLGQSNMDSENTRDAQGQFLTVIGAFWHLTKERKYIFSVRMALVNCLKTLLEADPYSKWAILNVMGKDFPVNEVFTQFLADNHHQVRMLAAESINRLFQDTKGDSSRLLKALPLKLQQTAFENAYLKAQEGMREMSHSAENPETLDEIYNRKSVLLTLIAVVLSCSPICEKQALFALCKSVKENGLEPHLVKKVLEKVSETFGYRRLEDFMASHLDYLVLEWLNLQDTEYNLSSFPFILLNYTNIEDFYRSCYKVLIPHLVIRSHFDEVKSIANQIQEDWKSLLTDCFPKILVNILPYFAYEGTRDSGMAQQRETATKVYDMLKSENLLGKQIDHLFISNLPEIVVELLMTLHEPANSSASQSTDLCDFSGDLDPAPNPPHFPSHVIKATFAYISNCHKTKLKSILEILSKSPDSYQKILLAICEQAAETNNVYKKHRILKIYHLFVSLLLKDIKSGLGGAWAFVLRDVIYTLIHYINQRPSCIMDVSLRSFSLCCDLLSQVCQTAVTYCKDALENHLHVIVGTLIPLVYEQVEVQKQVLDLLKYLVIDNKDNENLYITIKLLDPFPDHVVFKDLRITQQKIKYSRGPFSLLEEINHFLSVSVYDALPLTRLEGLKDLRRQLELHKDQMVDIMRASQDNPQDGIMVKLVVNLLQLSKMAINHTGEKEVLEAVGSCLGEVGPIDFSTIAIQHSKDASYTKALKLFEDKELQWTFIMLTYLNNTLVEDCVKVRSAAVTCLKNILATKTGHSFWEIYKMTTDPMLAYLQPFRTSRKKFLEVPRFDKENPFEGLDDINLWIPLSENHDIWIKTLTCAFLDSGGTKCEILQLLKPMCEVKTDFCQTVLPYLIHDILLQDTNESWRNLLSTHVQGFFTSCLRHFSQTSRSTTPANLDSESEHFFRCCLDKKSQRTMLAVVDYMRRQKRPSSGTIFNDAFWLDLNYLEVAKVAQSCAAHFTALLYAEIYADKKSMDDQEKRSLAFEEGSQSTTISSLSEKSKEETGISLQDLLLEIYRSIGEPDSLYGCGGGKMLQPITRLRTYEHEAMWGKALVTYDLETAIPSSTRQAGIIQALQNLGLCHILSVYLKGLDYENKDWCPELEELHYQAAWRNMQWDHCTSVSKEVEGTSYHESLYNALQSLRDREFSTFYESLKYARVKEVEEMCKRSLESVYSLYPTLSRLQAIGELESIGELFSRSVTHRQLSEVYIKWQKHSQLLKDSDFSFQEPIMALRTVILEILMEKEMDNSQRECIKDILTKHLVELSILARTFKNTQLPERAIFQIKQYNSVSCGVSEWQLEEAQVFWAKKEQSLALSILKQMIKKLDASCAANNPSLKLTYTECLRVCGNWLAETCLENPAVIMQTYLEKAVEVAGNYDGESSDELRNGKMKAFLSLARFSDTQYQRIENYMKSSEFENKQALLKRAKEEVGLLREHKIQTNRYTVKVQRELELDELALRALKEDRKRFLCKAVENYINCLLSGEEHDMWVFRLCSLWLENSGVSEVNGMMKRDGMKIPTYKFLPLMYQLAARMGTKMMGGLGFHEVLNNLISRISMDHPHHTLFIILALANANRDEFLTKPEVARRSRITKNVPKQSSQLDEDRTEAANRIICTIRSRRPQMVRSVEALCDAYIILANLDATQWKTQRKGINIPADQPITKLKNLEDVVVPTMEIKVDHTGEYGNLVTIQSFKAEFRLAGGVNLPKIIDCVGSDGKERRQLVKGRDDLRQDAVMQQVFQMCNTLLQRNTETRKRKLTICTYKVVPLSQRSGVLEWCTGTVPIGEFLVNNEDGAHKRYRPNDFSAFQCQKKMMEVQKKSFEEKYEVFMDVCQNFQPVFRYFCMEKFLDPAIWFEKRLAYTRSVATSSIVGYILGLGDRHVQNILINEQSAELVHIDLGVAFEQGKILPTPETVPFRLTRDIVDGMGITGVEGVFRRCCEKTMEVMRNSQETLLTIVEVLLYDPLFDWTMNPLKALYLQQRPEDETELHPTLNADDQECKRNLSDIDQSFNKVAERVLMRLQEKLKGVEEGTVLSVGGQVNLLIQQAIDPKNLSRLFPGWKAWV
Sequence of UniProt P05186 (whole entry, looked up): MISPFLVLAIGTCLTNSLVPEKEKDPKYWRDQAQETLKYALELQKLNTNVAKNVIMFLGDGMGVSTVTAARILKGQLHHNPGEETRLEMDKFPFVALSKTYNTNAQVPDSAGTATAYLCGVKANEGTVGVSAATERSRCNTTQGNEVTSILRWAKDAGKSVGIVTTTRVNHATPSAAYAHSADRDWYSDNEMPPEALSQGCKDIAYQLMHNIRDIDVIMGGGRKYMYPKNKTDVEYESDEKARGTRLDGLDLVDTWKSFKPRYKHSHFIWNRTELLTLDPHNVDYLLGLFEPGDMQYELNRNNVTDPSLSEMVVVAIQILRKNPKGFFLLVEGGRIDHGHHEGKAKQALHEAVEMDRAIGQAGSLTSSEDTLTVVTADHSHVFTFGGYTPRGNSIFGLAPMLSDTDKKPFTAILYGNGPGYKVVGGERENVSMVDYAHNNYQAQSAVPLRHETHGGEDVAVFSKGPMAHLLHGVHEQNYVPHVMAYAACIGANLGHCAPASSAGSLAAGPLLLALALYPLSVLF
Sequence of UniProt P06756 (whole entry, looked up): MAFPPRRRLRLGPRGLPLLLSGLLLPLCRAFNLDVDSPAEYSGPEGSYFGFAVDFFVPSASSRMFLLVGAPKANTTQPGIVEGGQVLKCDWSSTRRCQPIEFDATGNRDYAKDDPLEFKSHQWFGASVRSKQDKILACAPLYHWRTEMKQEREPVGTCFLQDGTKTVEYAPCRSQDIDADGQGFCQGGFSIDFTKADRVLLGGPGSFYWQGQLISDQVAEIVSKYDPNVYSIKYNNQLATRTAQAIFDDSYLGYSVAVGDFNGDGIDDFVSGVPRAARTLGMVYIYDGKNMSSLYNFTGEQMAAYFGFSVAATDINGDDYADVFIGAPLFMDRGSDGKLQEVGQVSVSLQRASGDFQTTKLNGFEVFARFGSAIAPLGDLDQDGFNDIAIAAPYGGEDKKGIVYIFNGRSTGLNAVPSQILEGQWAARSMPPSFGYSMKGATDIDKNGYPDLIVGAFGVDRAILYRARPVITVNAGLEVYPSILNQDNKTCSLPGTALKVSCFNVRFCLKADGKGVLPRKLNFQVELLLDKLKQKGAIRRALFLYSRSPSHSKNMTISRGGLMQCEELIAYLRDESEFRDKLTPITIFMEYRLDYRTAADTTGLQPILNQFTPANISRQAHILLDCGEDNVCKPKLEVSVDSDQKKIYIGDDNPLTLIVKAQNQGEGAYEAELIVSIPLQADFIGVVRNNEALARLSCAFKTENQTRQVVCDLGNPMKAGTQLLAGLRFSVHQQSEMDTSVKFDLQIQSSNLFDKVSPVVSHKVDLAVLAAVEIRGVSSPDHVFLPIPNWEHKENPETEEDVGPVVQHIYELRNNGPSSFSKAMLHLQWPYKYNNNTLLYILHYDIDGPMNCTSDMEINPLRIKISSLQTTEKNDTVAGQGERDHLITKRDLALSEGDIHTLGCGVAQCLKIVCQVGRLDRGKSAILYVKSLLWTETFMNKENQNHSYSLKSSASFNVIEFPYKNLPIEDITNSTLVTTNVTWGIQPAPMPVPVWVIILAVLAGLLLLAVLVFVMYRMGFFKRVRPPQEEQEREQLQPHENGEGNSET

Compound = O=C(OC[C@H]1OC[C@H](OC(=O)c2cc(O)c(O)c(O)c2)[C@@H](O)[C@@H]1O)c1cc(O)c(O)c(O)c1; target = DNA oxidative demethylase ALKBH2 (ALKBH2, Homo sapiens, UniProt Q6NS38); test = 3-methylcytosine repair, HPLC; setting = 1 h, 37 °C, added: ssDNA 16mer 5 µM; IC50 = 22.6 µM
Compound = COc1cc(C(=O)NS(=O)(=O)c2ccccc2C)ccc1Cc1cn(C)c2ccc(NC(=O)OC3CCCC3)cc12; target = Heat shock 70 kDa protein 1A (HSPA1A, Homo sapiens, UniProt P0DMV8); test = ATPase activity; IC50 = 71 µM
Compound = O=c1cc(-c2cccc3ccccc23)[nH][nH]1; target = Alkaline phosphatase, tissue-nonspecific isozyme (ALPL, Homo sapiens, UniProt P05186); test = enzyme activity, luminescence; setting = added: 300 µM CDP-star, 100 mM DEA; IC50 = 12.2 ± 0.383 µM
Compound = N=c1c2ncn3c2ncn1[C@@H]1O[C@H](COP(=O)(O)OP(=O)(O)OC[C@H]2O[C@@H]3[C@H](O)[C@@H]2O)[C@@H](O)[C@H]1O; target = NAD(+) hydrolase SARM1 (SARM1, Homo sapiens, UniProt Q6SZW1); test = enzyme activity, fluorescence; setting = with preincubation; IC50 = > 1500 µM
Compound = FC(F)(F)c1ccccc1N=C(S)N1CCc2ccccc2C1; target = Urease (Canavalia ensiformis, UniProt P07374); test = enzyme activity, absorbance; IC50 = 26.5 µM
Compound = CN(C)Cc1ccc(S(=O)(=O)n2ccc(/C=C/C(=O)NO)c2)cc1; target = HDAC (Lucilia cuprina egg nuclear extract); test = enzyme activity, fluorometric; IC50 = 1.71 µM
Compound = [Cu+2]; target = Transient receptor potential cation channel subfamily V member 1 (Trpv1, Rattus norvegicus, UniProt O35433); test = transporter uptake, radiometric; IC50 = 200 µM
Compound = CO[C@H]1/C=C/O[C@@]2(C)Oc3c(C)c(O)c4c(O)c(c(/C=N/N5CCN(C)CC5)c(O)c4c3C2=O)NC(=O)/C(C)=C\C=C\[C@H](C)[C@H](O)[C@@H](C)[C@@H](O)[C@@H](C)[C@H](OC(C)=O)[C@@H]1C; target = Solute carrier organic anion transporter family member 1B1 (SLCO1B1, Homo sapiens, UniProt Q9Y6L6); test = transporter uptake; test system = HEK293; IC50 = ~1 µM
Compound = COc1ccccc1OCC(O)Cn1c(=N)n(Cc2ccccc2)c2ccccc21 (centres unmarked); target = Inward rectifier potassium channel 13 (KCNJ13, Homo sapiens, UniProt O60928, M125R); test = ion flux; IC50 = 8.5 µM
Compound = COc1ccc([C@H](CC(=O)O)N2CCN(CCCc3ccc4c(n3)NCCC4)C2=O)cn1; target = Integrin alpha-V/beta-6 (Homo sapiens, UniProt P06756+P18564); test = LAP binding, ELISA; IC50 = 0.0007 ± 0.0005 µM
Compound = NC(=O)c1cnc(NCCc2ccc(O)c(Cl)c2)nc1NCc1ccccc1; target = Serine-protein kinase ATM (ATM, Homo sapiens, UniProt Q13315); test = kinase activity reporter, SPARK reporter imaging; test system = HEK293; setting = 1 h, added: etoposide 3 µM; IC50 = 0.325 µM
